Results of several laboratories.
Parts stem from different laboratories: compare values within a part only. Changes are numbered by the printed parent chain.

Series 1
Target: RING finger protein unkempt homolog, zinc fingers 1-6, GST-SBP tag (UNK, Homo sapiens, UniProt Q9C0B0, residues 30-357)
Method: RNA Bind-n-Seq
Form: RNA
Sample: in vitro
Concentration: not given
Notes: RNA with constant flanks, human and mouse sites, ends assumed
Baseline: input RNA pool
Reading: higher = stronger binding
Endpoint: bound/input enrichment
Shared flanks, not repeated: GGGAGUUCUACAGUCCGACGAUC … CAACAGAGGAUUGAGCAUCA
Residues (chain): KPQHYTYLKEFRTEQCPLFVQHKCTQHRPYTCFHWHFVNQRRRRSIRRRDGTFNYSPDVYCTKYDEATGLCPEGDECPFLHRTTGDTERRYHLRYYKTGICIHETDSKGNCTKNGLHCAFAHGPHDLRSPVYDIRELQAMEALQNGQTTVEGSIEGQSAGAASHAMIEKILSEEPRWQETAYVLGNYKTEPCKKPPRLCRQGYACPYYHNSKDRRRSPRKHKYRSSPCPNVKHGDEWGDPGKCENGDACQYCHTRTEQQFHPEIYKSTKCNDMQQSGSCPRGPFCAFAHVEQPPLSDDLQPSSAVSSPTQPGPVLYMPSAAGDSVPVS
GUGUUUGAACUAUCCAGGCUCAGGACAGCCUCUUGAAAAAAAAUUUUUUAUUAAUAAAGCGGAUUUGAGUGGGAUCUUUUUCCUAAUCGAUUACGGGCCCACACGUAUGGGAAGAAUUCU: 0.38 ratio
CUCUAUUUCACUGGGAGUGAUAUUUUCAAUAAGAAUAUGAGGGCUCAUGCCCUAGAAAAGGGUUUCACAAUCAAUGAGUACACCAUCCGUCCCUUGGGAGUCACUGGAGUUGCAGGAGAA: 0.216 ratio
ACAUGUAAUUCACGUGGUAAAAUAAAAUAUAGCUAUUGUAAGUGUGCUUUUCAGUAGCAUUAUAUAUGUGUUAUACAGUGAUUAUUGCUGUCCCUCUCCAAAACUCUAUCUUUGAAAACU: 0.0877 ratio
AGUUAUGAGGCUGAGAUCUCCACUAGACCAUGCCUUGCAUUAGCUCCAGAUAGCCCAGAUAAUGAUCUCAGAGCUGGUCAGUUUGGAAUUUCUGCCAGAAAGCCAUUCACCACUCUGGGU: 4.13 ratio
GGCGUGCUCUGCGUGCUGUCCGCGGACAAGAACACGACCCAGCACCCGAACGUGACGACUUUAGCGCCCAUCUCCAACGUAACCUCGGCGCCGGUGACGUCCCUCCCGCUGGUCACCACU: 0.126 ratio
AUGGAACUCGCCUAUCAGACUUUACUAGAGGCAACAACCAGUAGUGAUCAAUGUGCUGUUCAACUUUUCUACUCAGUGAGGAAUAUCUUCCAUUUGUUCCAUGAUGUUGUACCAACAUAU: 0.254 ratio
UGCUCGGGCCAUCCACAACAUCUUUCGUAUGACAGAAUCACAUUUAUUAGUCACUUGUGACUGCUUGAAGUUAAUUGAUCCGCAGACCCAAGUUACAAGGCUCACAUUUCCAUUGCCGUG: 0.14 ratio
GACUUUGGAACUGGUCCUCGUAAUGCAGCCUACUAUAGCCCUCAUGGACAUAUAUUAGUAUUAGCUGGAUUUGGAAAUCUGAGGGGACAAAUGGAAGUGUGGGAUGUGAAAAACUACAAA: 0.482 ratio

Series 2
Target: Hepatocyte nuclear factor 3-alpha (Foxa1, Mus musculus, UniProt P35582, residues 1-468, full length assumed)
UniProt P35582, sequence (whole entry, looked up): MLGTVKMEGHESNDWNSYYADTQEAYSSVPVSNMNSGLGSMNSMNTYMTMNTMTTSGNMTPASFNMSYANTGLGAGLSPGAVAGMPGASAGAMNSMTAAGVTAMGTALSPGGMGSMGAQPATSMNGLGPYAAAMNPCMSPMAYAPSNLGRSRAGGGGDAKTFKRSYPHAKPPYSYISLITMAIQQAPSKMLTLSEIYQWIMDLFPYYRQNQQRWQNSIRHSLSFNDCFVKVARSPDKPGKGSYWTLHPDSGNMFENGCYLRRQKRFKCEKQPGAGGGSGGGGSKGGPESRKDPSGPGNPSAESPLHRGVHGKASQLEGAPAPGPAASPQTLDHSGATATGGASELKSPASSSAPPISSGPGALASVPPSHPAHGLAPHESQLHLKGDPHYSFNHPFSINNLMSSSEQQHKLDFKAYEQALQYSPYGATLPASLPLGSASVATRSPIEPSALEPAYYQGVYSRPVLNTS
Method: EMSA with sequencing
Form: double-stranded DNA, one strand shown
Sample: in vitro
Concentration: 10 and 20 nM
Notes: whole designed probe, mean of two concentrations, ends assumed
Baseline: negative control set to 0
Reading: higher = stronger binding
Endpoint: normalised bound fraction
Shared flanks, not repeated: GTGAGCGGTGCCCATTGATGGGGAAC … TTTCACTGGGATCGTGGGGAC
AAGCCCCACGCACTGTCCGTGGGCGTCTCTGGCCTCCCGGACTTGTATCACAGACCCCAGCCCAAGAGACACAGGCAGAGGAAATGCTCAGTGTAAACATGGGAATGGGAGGGTGGCCCTGCCCTGTGGCCCGGCCTGCCCTGACCTGCAACCATGCACAGTAGCCAGGTGCCACGTAGGGCCCAATGTCTGC: 0.292 ratio
AATCTTCATGGAAAACTCTAAGGCAGATGGGAAAAAGAGAACTTGTTGATATTGGCCCTTAGCCAAGGGCAGAGGGTGATATAACAACAACTGATGTTTGCATAACTTCACCTCCTGGACCCTGGGGTGCTTGCAAACATCCATTCATTCATCCTGGTTCACTCATGTGAAATATGTAGGTGGTGTGTTTTAA: 0.333 ratio
TGCCATGGGCCTTCATTTCCAGGCTTCCAGGCTCACCAGCTCAGGAAGAGGATTTTGCTAAGCAGTGGATATATACACAAAGGCAGGGCCAATGCAATTTAGAAATTCCTGGTCCACAAATAAACATTTCTTAAGCAACCCACACAATGAAATGGATGATAGCGTTTTCTACCCGAACTTTTCTCTAATTACA: 0.134 ratio
GGAGCAATGCCGGCTGGTGGCCTGGCCGCTCCGCCCCTTCCCTACCCCTCGCGGAGGGCCCGCCCCCTGCCCCGCGCCGGCTAGCGGAGGAGAGTAAATACAACAGGAGCGCAAAAACGCGGAACCGCCGAGCCCCGTGCACTGTGTCGCTGCCGCGGCCCCCACCGCCACCGTCTCGGAGAAAGAACCGTTT: 0.231 ratio
ATCTTCCCCCTCTTCCTTGCCCCACCAGCTCACCTTCCCGGGTTATTTGCAGATAGGAAAATAAATAAAGCCGGCATTCGTTAACCCTCTTCTTAGTTGGCGCTGTCATCGCACTGGATGAATCATGGTCCTTTGGCGACGCCAGGCTCCGGGAGAGCAAAGCACCGTGTCAGGGCCATGATCCGGGGTGGCC: 0.344 ratio

Series 3
Target: ABI1, truncated, D143A, DHFR fusion (Arabidopsis thaliana)
Method: DHFR PCA, deep sequencing
Sample: yeast
Notes: methotrexate growth selection, single substitutions
Together with: (+)-ABA 58 µM
Baseline: wild-type fitted maximum
Reading: higher = stronger binding
Endpoint: relative binding score
Parent: PYL1, truncated, DHFR fusion (Arabidopsis thaliana); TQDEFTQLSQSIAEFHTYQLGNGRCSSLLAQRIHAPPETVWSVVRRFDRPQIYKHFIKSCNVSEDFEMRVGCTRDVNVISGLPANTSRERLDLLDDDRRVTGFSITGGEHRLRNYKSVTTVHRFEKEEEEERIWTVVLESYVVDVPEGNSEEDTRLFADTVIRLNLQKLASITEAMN; partner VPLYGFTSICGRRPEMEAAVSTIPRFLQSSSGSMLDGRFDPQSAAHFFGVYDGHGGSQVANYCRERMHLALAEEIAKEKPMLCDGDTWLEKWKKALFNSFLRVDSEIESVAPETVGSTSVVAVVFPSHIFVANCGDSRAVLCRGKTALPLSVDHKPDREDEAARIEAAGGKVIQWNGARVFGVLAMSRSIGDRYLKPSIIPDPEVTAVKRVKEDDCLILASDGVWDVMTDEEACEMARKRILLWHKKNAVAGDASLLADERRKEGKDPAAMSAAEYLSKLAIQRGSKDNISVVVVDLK
Y18A: 70.1%
S140A: 1.44%
L93D: 27.8%
Y18T: 68.6%
T86N: 85.2%
I57F: 4.09%
A84L: 7.3%
S26G: 85.5%
T120G: 6.1%
R99S: 45.1%
N85G: 79.3%
P50V: 18.3%
L28I: 84.8%
P146A: 71.1%
S104M: 26.3%
T39V: 91%

Series 4
Target: Fragile X messenger ribonucleoprotein 1, C-terminal low-complexity region (Fmr1, Mus musculus, UniProt P35922)
Method: RNA Bind-n-Seq
Form: RNA
Sample: in vitro
Concentration: 200 nM
Notes: whole 134-nt RNA, ends assumed
Together with: 150 mM KCl
Baseline: input library
Reading: higher = stronger binding
Endpoint: log2 enrichment
Shared flanks, not repeated: GGGAGUUCUACAGUCCGACGAUC … UGGAAUUCUCGGGUGUCAAGG
UGGGAGGUGGAUUUUGUUUAUUUUUUUAGCUCAUUUCCAGGGGUGGGAAUUUAUUUUUAAUAUGUGUCAUGAAUAAAGUUGUUUUUGAAA: 0.273
CCUGUGCUACACAUCGUAUGUACCGAAUCAAAUUUUUUUAAACCCCCAAAUUUUUUUAAAAAAGUAUUAUGUUACGCCGUUCGGAUCUGC: 0.0532
AGUCCUGUGCUACACAUCGUAUGUACCGAAUCGGUUUUUGGUUUUUGGAAAAAAAGGAAAGUAUUAUGUUACGCCGUUCGGAUCUGCACU: -1.02
AGUCCUGUGCUACACAUCGUAUGUACCGAAUCGGGUUUUUGGGUUUUUGGUUUUUGGGAAAGUAUUAUGUUACGCCGUUCGGAUCUGCAC: -0.541
UCCUGUGCUACACAUCGUAUGUACCGAAUCGGGGUUUUUGGGGAAAAAAAGGGGUGGGGAAAGUAUUAUGUUACGCCGUUCGGAUCUGCA: 0.831
CAAGUCCUGUGCUACACAUCGUAUGUACCGAAUCGGUUUUUUUGGAGGAAAAAGGAAAGUAUUAUGUUACGCCGUUCGGAUCUGCACUUC: -0.488
CUCAAGUCCUGUGCUACACAUCGUAUGUACCGAAUCGGUUUGGUUUUUGGUGGAAAGUAUUAUGUUACGCCGUUCGGAUCUGCACUUCCA: -0.0741
AAGUCCUGUGCUACACAUCGUAUGUACCGAAUCGGAAAAAAAGGUUUUUGGAAAGGAAAGUAUUAUGUUACGCCGUUCGGAUCUGCACUU: -1.4
AGUCCUGUGCUACACAUCGUAUGUACCGAAUCGGAAAAAGGUUUUUUUGGAAAAAGGAAAGUAUUAUGUUACGCCGUUCGGAUCUGCACU: -1.55

Repeated from above (series 2):
ATCTTCCCCCTCTTCCTTGCCCCACCAGCTCACCTTCCCGGGTTATTTGCAGATAGGAAAATAAATAAAGCCGGCATTCGTTAACCCTCTTCTTAGTTGGCGCTGTCATCGCACTGGATGAATCATGGTCCTTTGGCGACGCCAGGCTCCGGGAGAGCAAAGCACCGTGTCAGGGCCATGATCCGGGGTGGCC: 0.344 ratio
TGCCATGGGCCTTCATTTCCAGGCTTCCAGGCTCACCAGCTCAGGAAGAGGATTTTGCTAAGCAGTGGATATATACACAAAGGCAGGGCCAATGCAATTTAGAAATTCCTGGTCCACAAATAAACATTTCTTAAGCAACCCACACAATGAAATGGATGATAGCGTTTTCTACCCGAACTTTTCTCTAATTACA: 0.134 ratio
GGAGCAATGCCGGCTGGTGGCCTGGCCGCTCCGCCCCTTCCCTACCCCTCGCGGAGGGCCCGCCCCCTGCCCCGCGCCGGCTAGCGGAGGAGAGTAAATACAACAGGAGCGCAAAAACGCGGAACCGCCGAGCCCCGTGCACTGTGTCGCTGCCGCGGCCCCCACCGCCACCGTCTCGGAGAAAGAACCGTTT: 0.231 ratio
